{"data": "Results from different studies", "B1": "human RAB10; sequence looked up; chain MAKKTYDLLFKLLLIGDSGVGKTCVLFRFSDDAFNTTFISTIGIDFKIKTVELQGKKIKLQIWDTAGQERFHTITTSYYRGAMGIMLVYDITNGKSFENISKWLRNIDEHANEDVERMLLGNKCDMDDKRVVPKGKGEQIAREHGIRFFETSAKANINIEKAFLTLAEDILRKTPVKEPNSENVDISSGGGVTGWKSKCC", "B2": "AKAP7 (Homo sapiens, UniProt O43687-2); sequence looked up; chain MGQLCCFPFSRDEGKISEKNGGEPDDAELVRLSKRLVENAVLKAVQQYLEETQNKNKPGEGSSVKTEAADQNGNDNENNRK", "B3": "designed binder (Homo sapiens); chain MASAARLTMMWEEVTCPICLDPFVEPVSIECGHSFCQECISQVGKGGGSVCPVCRQRFLLKNLRPNRQLANMVNNLKEISQEAREGTQGERCAVHGERLHLFCEKDGKALCWVCAQSRKHRDHAMVPLEEAAQEYQEKLQVALGELRRKQELAEKLEVEIAIKRADWKKTVETQKSRIHAEFVQQKNFLVEEEQRQLQELEKDEREQLRILGEKEAKLAQQSQALQELISELDRRCHSSALELLQEVIIVLERSESWNLKDLDITSPELRSVCHVPGLKKMLRTCAGGGGSGGGGSGGGGSRLDAPSTIAVYRVSYTYAIIYWYSPLAEIDGFELTYGIKDVPGDRTTIKLTEDDGHYVIRHLKPDTEYEVSLISRRGDMSSNPAKITFKTGL", "B4": "Pigr 19-135 (Mus musculus, UniProt O70570); chain KSPIFGPQEVSSIEGDSVSITCYYPDTSVNRHTRKYWCRQGASGMCTTLISSNGYLSKEYSGRANLINFPENNTFVINIEQLTQDDTGSYKCGLGTSNRGLSFDVSLEVSQVPELPS", "B5": "human RAB8B; sequence looked up; chain MAKTYDYLFKLLLIGDSGVGKTCLLFRFSEDAFNTTFISTIGIDFKIRTIELDGKKIKLQIWDTAGQERFRTITTAYYRGAMGIMLVYDITNEKSFDNIKNWIRNIEEHASSDVERMILGNKCDMNDKRQVSKERGEKLAIDYGIKFLETSAKSSANVEEAFFTLARDIMTKLNRKMNDSNSAGAGGPVKITENRSKKTSFFRC", "B6": "EFR3A 721-791 (Homo sapiens, UniProt Q14156); chain SNTEEITFEALKKAIDTSGMEEQEKEKRRLVIEKFQKAPFEEIAAQCESKANLLHDRLAQILELTIRPPPS", "B7": "Cacna1c 1647-1777 (Mus musculus, UniProt Q01815); sequence looked up; chain NALSLQAGLRTLHDIGPEIRRAISGDLTAEEELDKAMKEAVSAASEDDIFRRAGGLFGNHVTYYQSDSRGNFPQTFATQRPLHINKTGNNQADTESPSHEKLVDSTFTPSSYSSTGSNANINNANNTALGR", "B8": "EFNB1 28-237 (Homo sapiens, UniProt P98172); sequence looked up; chain LAKNLEPVSWSSLNPKFLSGKGLVIYPKIGDKLDIICPRAEAGRPYEYYKLYLVRPEQAAACSTVLDPNVLVTCNRPEQEIRFTIKFQEFSPNYMGLEFKKHHDYYITSTSNGSLEGLENREGGVCRTRTMKIIMKVGQDPNAVTPEQLTTSRPSKEADNTVKMATQAPGSRGSLGDSDGKHETVNQEEKSGPGASGGSSGDPDGFFNSK", "B9": "Mena EVH1 1-113 (Homo sapiens, UniProt Q8N8S7); chain MSEQSICQARAAVMVYDDANKKWVPAGGSTGFSRVHIYHHTGNNTFRVVGRKIQDHQVVINCAIPKGLKYNQATQTFHQWRDARQVYGLNFGSKEDANVFASAMMHALEVLNS", "B10": "CD112R ECD 41-172 (human, UniProt Q6DKI7); sequence looked up; chain TPEVWVQVRMEATELSSFTIRCGFLGSGSISLVTVSWGGPNGAGGTTLAVLHPERGIRQWAPARQARWETQSSISLILEGSGASSPCANTTFCCKFASFPEGSWEACGSLPPSSDPGLSAPPTPAPILRADL", "B11": "PXN 541-605 (Homo sapiens, UniProt P49023-3); sequence looked up; chain YHERRGSLCSGCQKPITGRCITAMAKKFHPEHFVCAFCLKQLNKGTFKEQNDKPYCQNCFLKLFC", "note": "Compare with care: the assays were run in different laboratories. Numbers after ± are the reported error.", "chain of UniProt P29317 (25-968, looked up)": "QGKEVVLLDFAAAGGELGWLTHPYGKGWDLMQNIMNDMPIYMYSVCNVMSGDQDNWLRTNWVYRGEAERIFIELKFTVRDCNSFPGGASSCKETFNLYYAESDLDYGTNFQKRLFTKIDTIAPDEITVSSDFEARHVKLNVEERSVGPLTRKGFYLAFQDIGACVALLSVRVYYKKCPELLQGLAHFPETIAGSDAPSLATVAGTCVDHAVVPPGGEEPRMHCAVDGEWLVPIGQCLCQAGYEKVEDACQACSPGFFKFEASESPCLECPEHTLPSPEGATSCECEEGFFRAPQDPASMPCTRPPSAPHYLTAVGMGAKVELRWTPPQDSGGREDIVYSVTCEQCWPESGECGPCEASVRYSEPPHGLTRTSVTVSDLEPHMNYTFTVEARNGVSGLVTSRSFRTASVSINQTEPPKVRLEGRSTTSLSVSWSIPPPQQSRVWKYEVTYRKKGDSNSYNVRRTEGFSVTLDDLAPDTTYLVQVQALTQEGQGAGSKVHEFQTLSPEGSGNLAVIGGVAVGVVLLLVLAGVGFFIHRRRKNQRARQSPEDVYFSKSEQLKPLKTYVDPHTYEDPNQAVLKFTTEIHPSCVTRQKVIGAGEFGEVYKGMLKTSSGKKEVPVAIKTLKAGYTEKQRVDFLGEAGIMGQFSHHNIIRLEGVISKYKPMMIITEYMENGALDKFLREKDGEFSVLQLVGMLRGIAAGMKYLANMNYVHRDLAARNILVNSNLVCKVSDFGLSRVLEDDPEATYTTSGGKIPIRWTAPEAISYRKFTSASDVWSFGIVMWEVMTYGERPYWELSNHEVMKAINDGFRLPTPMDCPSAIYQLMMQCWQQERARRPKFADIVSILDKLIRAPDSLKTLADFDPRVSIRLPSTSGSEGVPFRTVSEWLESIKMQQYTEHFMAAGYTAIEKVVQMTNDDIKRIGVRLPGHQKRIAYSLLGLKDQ", "chain of UniProt Q8NBP7 (whole entry, looked up)": "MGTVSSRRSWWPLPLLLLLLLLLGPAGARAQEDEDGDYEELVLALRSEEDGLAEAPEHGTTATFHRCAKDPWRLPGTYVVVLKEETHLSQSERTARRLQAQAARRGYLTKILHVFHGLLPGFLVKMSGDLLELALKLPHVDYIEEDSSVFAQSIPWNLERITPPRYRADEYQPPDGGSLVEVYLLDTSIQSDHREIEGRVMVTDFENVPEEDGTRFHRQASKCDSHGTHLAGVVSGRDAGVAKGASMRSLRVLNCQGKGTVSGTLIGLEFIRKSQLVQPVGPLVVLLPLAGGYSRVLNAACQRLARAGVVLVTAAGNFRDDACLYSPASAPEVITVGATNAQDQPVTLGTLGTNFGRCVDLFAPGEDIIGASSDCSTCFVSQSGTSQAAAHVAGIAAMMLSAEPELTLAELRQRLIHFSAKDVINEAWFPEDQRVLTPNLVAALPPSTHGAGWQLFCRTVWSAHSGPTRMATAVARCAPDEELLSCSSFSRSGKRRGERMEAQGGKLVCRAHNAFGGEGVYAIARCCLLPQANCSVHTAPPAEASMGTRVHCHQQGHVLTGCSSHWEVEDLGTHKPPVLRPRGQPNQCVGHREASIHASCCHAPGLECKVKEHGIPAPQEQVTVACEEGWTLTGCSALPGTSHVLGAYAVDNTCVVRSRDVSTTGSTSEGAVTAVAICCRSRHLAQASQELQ", "chain of UniProt Q9NVR5 (whole entry, looked up)": "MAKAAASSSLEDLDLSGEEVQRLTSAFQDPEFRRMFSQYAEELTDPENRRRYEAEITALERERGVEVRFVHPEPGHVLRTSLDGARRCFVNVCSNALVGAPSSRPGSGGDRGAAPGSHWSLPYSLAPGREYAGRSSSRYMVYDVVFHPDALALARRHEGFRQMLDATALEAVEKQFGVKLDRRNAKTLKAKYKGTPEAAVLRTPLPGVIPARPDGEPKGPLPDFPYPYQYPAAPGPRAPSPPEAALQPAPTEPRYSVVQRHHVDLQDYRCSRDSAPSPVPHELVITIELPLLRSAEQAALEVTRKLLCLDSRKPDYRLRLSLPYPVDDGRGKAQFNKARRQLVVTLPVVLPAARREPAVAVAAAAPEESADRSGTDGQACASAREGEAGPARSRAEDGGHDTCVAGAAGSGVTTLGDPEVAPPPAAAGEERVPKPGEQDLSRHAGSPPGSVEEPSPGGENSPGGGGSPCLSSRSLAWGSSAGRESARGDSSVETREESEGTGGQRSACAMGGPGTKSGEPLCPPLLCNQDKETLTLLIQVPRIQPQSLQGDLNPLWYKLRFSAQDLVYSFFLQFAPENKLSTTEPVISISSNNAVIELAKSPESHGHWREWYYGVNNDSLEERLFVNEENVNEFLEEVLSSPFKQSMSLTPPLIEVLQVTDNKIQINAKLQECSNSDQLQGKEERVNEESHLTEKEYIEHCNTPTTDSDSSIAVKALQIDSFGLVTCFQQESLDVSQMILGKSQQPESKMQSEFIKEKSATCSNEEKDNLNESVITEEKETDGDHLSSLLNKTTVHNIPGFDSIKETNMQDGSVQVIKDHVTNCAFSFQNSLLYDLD", "chain of UniProt Q06671 (whole entry, looked up)": "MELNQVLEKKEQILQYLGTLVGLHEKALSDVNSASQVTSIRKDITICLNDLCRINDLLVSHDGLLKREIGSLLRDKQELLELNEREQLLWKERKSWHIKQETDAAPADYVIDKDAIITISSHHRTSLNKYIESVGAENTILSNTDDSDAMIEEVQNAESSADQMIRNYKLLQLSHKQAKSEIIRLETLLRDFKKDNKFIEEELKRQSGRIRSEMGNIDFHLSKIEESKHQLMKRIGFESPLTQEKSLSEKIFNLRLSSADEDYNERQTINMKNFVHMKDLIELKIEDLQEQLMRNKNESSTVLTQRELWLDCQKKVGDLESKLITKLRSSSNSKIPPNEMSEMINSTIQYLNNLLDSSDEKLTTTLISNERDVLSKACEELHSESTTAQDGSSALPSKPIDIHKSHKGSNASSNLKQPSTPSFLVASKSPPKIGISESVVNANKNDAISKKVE", "chain of UniProt Q96AC1 (whole entry, looked up)": "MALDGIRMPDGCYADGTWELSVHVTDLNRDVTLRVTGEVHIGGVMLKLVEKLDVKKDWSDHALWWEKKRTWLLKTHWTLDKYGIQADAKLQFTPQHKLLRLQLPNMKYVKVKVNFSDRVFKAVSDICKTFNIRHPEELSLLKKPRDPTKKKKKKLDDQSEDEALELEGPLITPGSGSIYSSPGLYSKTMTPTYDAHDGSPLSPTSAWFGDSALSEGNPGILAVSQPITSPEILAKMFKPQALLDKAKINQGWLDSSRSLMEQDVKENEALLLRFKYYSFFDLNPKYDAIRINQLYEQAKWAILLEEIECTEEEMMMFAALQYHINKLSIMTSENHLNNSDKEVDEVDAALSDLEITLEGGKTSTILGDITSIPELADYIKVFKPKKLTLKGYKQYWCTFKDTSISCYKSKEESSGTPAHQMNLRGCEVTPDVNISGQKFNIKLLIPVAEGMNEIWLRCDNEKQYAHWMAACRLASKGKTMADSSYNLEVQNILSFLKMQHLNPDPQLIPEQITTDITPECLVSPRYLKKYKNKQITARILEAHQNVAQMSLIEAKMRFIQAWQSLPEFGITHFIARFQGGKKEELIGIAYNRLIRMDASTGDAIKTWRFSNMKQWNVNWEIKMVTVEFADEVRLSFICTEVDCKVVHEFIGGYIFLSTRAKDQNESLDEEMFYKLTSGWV", "chain of UniProt Q9SUG6 (whole entry, looked up)": "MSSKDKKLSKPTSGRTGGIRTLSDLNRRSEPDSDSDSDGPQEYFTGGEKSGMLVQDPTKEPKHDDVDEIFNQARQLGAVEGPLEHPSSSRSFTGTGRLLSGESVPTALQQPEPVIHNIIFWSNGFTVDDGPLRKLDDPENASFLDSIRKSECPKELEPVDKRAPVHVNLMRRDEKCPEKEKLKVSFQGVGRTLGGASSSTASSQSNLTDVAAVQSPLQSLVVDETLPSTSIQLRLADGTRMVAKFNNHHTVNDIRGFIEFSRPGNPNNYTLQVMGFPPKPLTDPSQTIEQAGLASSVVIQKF"}
{"Molecule": "TERLVLRLNRKKKKVSWKDGTVDNE (INH3 27-51 (Arabidopsis thaliana, UniProt Q8S8F7))", "tested on": "PUX3 (Arabidopsis thaliana, UniProt Q9SUG6)", "assay": "ITC", "test system": "peptide", "endpoint": "Kd", "value": "37.7 ± 12.3 µM"}
{"Molecule": "Cacna1c distal C-terminal regulatory (Rattus norvegicus)", "tested on": "CACNA1C IQ motif 1644-1668 F1648E, fluorescein label (UniProt P15381)", "assay": "fluorescence polarisation", "endpoint": "Kd", "value": "66 ± 10 µM"}
{"Molecule": "EGLN1 fragment", "tested on": "HIF1A CODD peptide 556-574, C-terminal amide (Homo sapiens)", "assay": "BLI", "endpoint": "Kd", "value": "23.6 ± 3 µM"}
{"Molecule": "B1 (human RAB10)", "tested on": "CYB5R4 knockout human cells", "assay": "PP6 interaction, 3xFLAG-PP6C IP-MS", "setting": "concentration not given", "scale": "relative to: CYB5R4 KO over parental", "endpoint": "log2 fold change", "value": -0.12}
{"Molecule": "ASCC3 C-degron", "tested on": "APPBP2/ELOB/ELOC (Homo sapiens)", "assay": "ITC", "endpoint": "Kd", "value": "1.7 ± 0.5 µM"}
{"Molecule": "SDLACRLLGQSMDESGLPQLTSYDCEVNAPIQGSGSGSGSGSRNLLQGEELLRALDQVN (HIF-1α CTAD 776-826 (GS)4 insertion (Homo sapiens, UniProt Q16665); sequence looked up)", "tested on": "Crebbp 340-439 (Mus musculus, UniProt P45481)", "assay": "fluorescence polarisation", "endpoint": "Kd", "value": "0.16 µM"}
{"Molecule": "B2 (AKAP7)", "tested on": "PRKCA (Homo sapiens, UniProt P17252)", "assay": "SPR", "endpoint": "Kd", "value": "0.023 µM"}
{"Molecule": "B3 (designed binder)", "tested on": "MALT1 (Homo sapiens, UniProt Q9UDY8)", "assay": "BLI", "test system": "designed binder", "endpoint": "Kd", "value": "0.619 ± 0.0091 µM"}
{"Molecule": "MERDEYQLPNSHGKNTFLSRIFGLQSDEVNPSLNSQEMSNFPLPDIER (ATG9 1-48 (Saccharomyces cerevisiae, UniProt Q12142); sequence looked up)", "tested on": "Atg23 full-length, dimer (yeast, UniProt Q06671)", "assay": "BLI", "endpoint": "Kd", "value": "1.19 µM"}
{"Molecule": "evolocumab, partial Asn deamidation", "tested on": "PCSK9 (Homo sapiens, UniProt Q8NBP7)", "assay": "SPR", "endpoint": "Kd", "value": "0.00068 µM"}
{"Molecule": "B4 (Pigr 19-135)", "tested on": "Igha/Jchain CH2-CH3 with J chain D137A/P136A (Mus musculus)", "assay": "SPR", "endpoint": "Kd", "value": "1.19 µM"}
{"Molecule": "KLLMIIHDRREFAKFEKEKMNAKWDTQENPIYKSPINNFKNPNYGRKAGL (ITGB1 752-801 (Homo sapiens, UniProt P05556-5); sequence looked up)", "tested on": "Tln2 312-408 E375D (Mus musculus, UniProt Q71LX4)", "assay": "NMR titration", "endpoint": "Kd", "value": "63 µM"}
{"Molecule": "B5 (human RAB8B)", "tested on": "CYB5R4 knockout human cells", "assay": "PP6 interaction, 3xFLAG-PP6C IP-MS", "setting": "concentration not given", "scale": "relative to: CYB5R4 KO over parental", "endpoint": "log2 fold change", "value": -0.11}
{"Molecule": "B6 (EFR3A 721-791)", "tested on": "TTC7B/FAM126B FAM126B 1-308", "assay": "BLI", "endpoint": "Kd", "value": "0.000298 µM"}
{"Molecule": "MTLRRRGEKATISIQEHMAIDVCPGPIRPIKQISDYF (Doc2b 1-37 (Mus musculus, UniProt P70169); sequence looked up)", "tested on": "Unc13a MUN domain del1453-1531 (Rattus norvegicus)", "assay": "ITC", "endpoint": "Kd", "value": "1.77 ± 0.16 µM"}
{"Molecule": "DLDSDDEY (TELO2 488-494 (Homo sapiens); pS491)", "tested on": "DNAAF2 73-197 (Homo sapiens, UniProt Q9NVR5)", "assay": "ITC", "test system": "peptide", "endpoint": "Kd", "value": "78.1 ± 16.9 µM"}
{"Molecule": "B7 (Cacna1c 1647-1777)", "tested on": "jph2 1-455 (Danio rerio, UniProt A0ACM8QCS2)", "assay": "ITC", "endpoint": "Kd", "value": "6.63 µM"}
{"Molecule": "B8 (EFNB1 28-237)", "tested on": "EPHA2 residues 25-968, auto-phosphorylated (Homo sapiens, UniProt P29317)", "assay": "BLI", "test system": "Fc fusion", "setting": "apparent", "endpoint": "Kd", "value": "8.2 µM"}
{"Molecule": "ENAH EVH1 domain (Homo sapiens)", "tested on": "APBB1IP peptide (Homo sapiens)", "assay": "BLI", "endpoint": "Kd", "value": "25.9 µM"}
{"Molecule": "colistin", "tested on": "Enterobacter cloacae", "test system": "clinical isolate RKI 5/14", "endpoint": "MIC", "value": "≤ 0.5 mg/L"}
{"Molecule": "Notch ankyrin domain H116A/R107A (Drosophila)", "tested on": "dx (Drosophila melanogaster, UniProt Q23985)", "assay": "AUC", "endpoint": "Kd", "value": "14 µM"}
{"Molecule": "B9 (Mena EVH1 1-113)", "tested on": "PTP1B, N-terminal 5-TAMRA (Homo sapiens)", "assay": "fluorescence polarization", "endpoint": "Kd", "value": "13 µM"}
{"Molecule": "NOTCH1 fragment (Homo sapiens)", "tested on": "RBPJ 25-449 (Homo sapiens, UniProt Q06330)", "assay": "ITC", "endpoint": "Kd", "value": "> 20 µM"}
{"Molecule": "YL-1 fragment (Drosophila melanogaster)", "tested on": "H2A/H2B dimer (Homo sapiens)", "assay": "ITC", "endpoint": "Kd", "value": "6.3 µM"}
{"Molecule": "B10 (CD112R ECD 41-172)", "tested on": "NECTIN2 32-350 (Homo sapiens, UniProt Q92692)", "assay": "SPR", "endpoint": "Kd", "value": "0.526 µM"}
{"Molecule": "B11 (PXN 541-605)", "tested on": "FERMT2 1-105 (Homo sapiens, UniProt Q96AC1)", "assay": "NMR titration", "endpoint": "Kd", "value": "201 µM"}
{"note": "Repeated from above:"}
{"Molecule": "MERDEYQLPNSHGKNTFLSRIFGLQSDEVNPSLNSQEMSNFPLPDIER (ATG9 1-48 (Saccharomyces cerevisiae, UniProt Q12142); sequence looked up)", "tested on": "Atg23 full-length, dimer (yeast, UniProt Q06671)", "assay": "BLI", "endpoint": "Kd", "value": "1.19 µM"}
{"Molecule": "SDLACRLLGQSMDESGLPQLTSYDCEVNAPIQGSGSGSGSGSRNLLQGEELLRALDQVN (HIF-1α CTAD 776-826 (GS)4 insertion (Homo sapiens, UniProt Q16665); sequence looked up)", "tested on": "Crebbp 340-439 (Mus musculus, UniProt P45481)", "assay": "fluorescence polarisation", "endpoint": "Kd", "value": "0.16 µM"}
{"Molecule": "B5 (human RAB8B)", "tested on": "CYB5R4 knockout human cells", "assay": "PP6 interaction, 3xFLAG-PP6C IP-MS", "setting": "concentration not given", "scale": "relative to: CYB5R4 KO over parental", "endpoint": "log2 fold change", "value": -0.11}
